# Assay results collected from several papers.
# Every numbered part comes from another study and shows a few of its results, in no order.

# Block 1 — technique: RNA Bind-n-Seq; molecule type: RNA; matrix: in vitro; tested at: 20 nM; notes: 6-mer, flanks averaged, single round; with: 150 mM KCl; relative to: input library; reading: higher = stronger binding
# Target: TAR DNA-binding protein 43, full length, His tag (TARDBP, Homo sapiens, UniProt Q13148, residues 1-414)
Sequence,6-mer enrichment (R)
UUGUCA,0.609
GGUUCA,0.854
CAGAGA,0.885
CCUUAA,0.597
UCGCAU,0.611
GAGUCU,0.781
GCCGUA,0.819
CGCCCC,0.677

# Block 2 — technique: RNA Bind-n-Seq; molecule type: RNA; matrix: in vitro; tested at: not given; relative to: input RNA pool; reading: higher = stronger binding
# Target: RING finger protein unkempt homolog, zinc fingers 1-6, GST-SBP tag (UNK, Homo sapiens, UniProt Q9C0B0, residues 30-357)
# Notes: RNA with constant flanks, human and mouse sites, ends assumed
# Construct (chain): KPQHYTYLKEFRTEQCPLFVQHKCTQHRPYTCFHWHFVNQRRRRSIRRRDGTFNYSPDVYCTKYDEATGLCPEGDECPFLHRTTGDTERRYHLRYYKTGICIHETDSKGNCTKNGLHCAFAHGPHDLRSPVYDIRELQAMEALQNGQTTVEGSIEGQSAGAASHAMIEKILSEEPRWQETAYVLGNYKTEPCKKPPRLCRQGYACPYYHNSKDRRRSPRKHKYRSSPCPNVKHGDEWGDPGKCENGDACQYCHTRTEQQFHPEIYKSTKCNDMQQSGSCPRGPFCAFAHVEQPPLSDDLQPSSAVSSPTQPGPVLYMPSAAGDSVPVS
Sequence,bound/input enrichment [ratio]
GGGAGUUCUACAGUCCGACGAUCACUGUGACCUAAGAACAAAACUGUAACUGCAUUAGAAACCAUGAAAAAAUUAGAUAUUGUUUUGUGACUUUUAGACAGUGGUAAAUAUAGAACCAUGAAUUCUGGUCACAUUCCAUUUCUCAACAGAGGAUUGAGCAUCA,14.6
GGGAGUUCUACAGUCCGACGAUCGCGGCCUCAUUGCUCCGUUUUCAGAGUACCUUGGUAAUAGCUGAGCAUGCAAAUGAUUCCCUAGCACCCAUUACUCUAAAUACUAUCACUGCAGCUGGACGUCUUGGAGGUGAAGUGUCCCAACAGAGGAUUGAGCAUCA,0.333
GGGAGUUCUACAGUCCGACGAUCCGUCACAAAGAACUUUUUGCUUUGCAUCCAUCACCAGAUGAGGAAGAACCAAUAGAACGGCUUAGUGUUCCUGAUAUACCCAAAGAACAUUUUGGUCAAAGACUUCUUGUAAAAUGCUUACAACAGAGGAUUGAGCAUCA,0.14
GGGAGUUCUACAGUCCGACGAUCAUCACCGUGGACUCCAAGCGCUUCUUCUUCGAUGUGGGCUGCAACAAAUACGGGGUGUUUCUGCGAGUGAGCGAGGUGAAGCCGUCCUACCGCAAUGCCAUCACCGUACCCUUCAAAGCCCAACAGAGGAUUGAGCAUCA,0.0523
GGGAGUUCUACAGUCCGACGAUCUUAAUAGGCUUAAUAAUUGUUGGCAAAGAUCCUUUUGCUUUUUUCGGCAUGCAAGCUCCUAGCAUCUGGCAGUGGGGCCAAGAAAAUAAGGUUUAUGCAUGUAUGAUGGUUUUCUUCCUGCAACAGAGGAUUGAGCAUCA,1.18
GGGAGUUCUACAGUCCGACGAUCAGUCUGCCUGGUGAGGCUGGCAGGUGGGAGUCUAAUGCAGUCAGGAGCAUUUGCAUGCAGUGGGUGGAGAGUCGGCCACCAAAGGACCGAGUUGCGCUCGGAAUUUGAGCUGAAUUCCACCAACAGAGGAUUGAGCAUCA,0.177
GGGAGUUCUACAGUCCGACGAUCCACAAGUGGAUGGUACUUUUGGAAACUGAACUCUUGUUGUUUUGUUUUUUUAUUGUAAGUCUUAGCCCUUAAUGGCUGAGUUGUCUCUUUAACCAGGAUGGCACUUUUAGGAAUGGUGACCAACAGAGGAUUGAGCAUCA,6.24
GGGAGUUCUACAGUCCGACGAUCAAAUAUAUGAAAAGUAGAACUAUUCUACAGCAGCACAUGAAGAAAUGUGGUUGGUUCCAUCCUCCUGCCAAUGAGAUUUACCGAAAGAAUAAUAUUUCUGUCUUUGAGGUUGAUGGGAACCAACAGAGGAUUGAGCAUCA,0.219

# Block 3 — technique: protein binding microarray; molecule type: double-stranded DNA, one strand shown; matrix: in vitro; tested at: not given; relative to: not given; reading: higher = stronger binding
# Target: Histone acetyltransferase KAT6A, winged helix 1, GST fusion (KAT6A, Homo sapiens, UniProt Q92794, residues 1-85)
# Notes: 8-mer, flanks averaged, mean of 2 arrays, mostly near background
# Target sequence (chain): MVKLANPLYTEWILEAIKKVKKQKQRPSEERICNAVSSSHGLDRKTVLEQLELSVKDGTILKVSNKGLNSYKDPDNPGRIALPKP
Sequence,E-score
CTGGGCCC,-0.119
AACCGGGT,0.295
CGAATGAG,-0.0485
CGTCGGGA,0.397
TACTTAAA,-0.117
AATAAACG,0.0985
AGGTAGCC,-0.0738
AGAAGTTA,-0.24

# Further values, each from its own experiment
SMILES,species,matrix,tested at,time,quantity,value
Cc1ccccc1-c1nc2ccccc2cc1C(C)Nc1ncnc(Cl)c1N (stereo not shown),human,microsomes or S9,2 µM,0.5 h,remaining compound,39.2%
